Earlier results that unrelated publications cite.
Lines come from different studies, so protocols differ. ± marks the error that the study gave.
Sequence of UniProt Q9UGM1 (whole entry, looked up): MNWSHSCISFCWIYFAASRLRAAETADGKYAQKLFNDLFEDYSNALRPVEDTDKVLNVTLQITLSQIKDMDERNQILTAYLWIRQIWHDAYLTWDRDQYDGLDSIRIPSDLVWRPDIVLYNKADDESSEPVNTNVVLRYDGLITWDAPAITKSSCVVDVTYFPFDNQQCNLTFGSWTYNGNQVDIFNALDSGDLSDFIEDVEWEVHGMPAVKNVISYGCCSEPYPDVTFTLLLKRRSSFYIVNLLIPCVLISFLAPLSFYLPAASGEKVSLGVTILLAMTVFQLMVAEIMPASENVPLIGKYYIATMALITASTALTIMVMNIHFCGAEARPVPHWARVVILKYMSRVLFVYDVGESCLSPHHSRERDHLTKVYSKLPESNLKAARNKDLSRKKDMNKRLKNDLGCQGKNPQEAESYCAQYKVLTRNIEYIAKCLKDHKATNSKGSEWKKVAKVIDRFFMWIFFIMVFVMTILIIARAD
Sequence of UniProt Q9GZZ6 (whole entry, looked up): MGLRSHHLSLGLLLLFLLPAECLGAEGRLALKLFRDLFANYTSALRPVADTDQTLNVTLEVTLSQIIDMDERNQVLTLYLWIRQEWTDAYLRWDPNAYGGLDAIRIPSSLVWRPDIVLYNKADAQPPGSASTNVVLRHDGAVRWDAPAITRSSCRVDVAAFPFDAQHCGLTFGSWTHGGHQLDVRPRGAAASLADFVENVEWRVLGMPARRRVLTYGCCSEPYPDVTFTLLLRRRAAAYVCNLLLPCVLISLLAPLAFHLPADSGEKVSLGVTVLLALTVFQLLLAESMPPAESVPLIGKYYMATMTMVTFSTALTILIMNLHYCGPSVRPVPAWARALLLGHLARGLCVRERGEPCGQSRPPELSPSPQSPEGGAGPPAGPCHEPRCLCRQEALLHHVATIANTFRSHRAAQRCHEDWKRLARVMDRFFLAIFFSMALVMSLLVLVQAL

| SMILES | target | assay | setting | quantity | result |
| --- | --- | --- | --- | --- | --- |
| C[C@@H](NC(=O)[C@@H](N)Cc1ccc(O)cc1)C(=O)NCC(=O)N(C)[C@@H](Cc1ccccc1)C(=O)NCCO | mu opioid receptor, solubilized | binding | – | Kd | 815 nM |
| CN1CCc2[nH]c3ccccc3c2CC1 | Neuronal acetylcholine receptor; alpha9/alpha10 (Homo sapiens, UniProt Q9GZZ6+Q9UGM1) | inhibitor | together with: 6 µM acetylcholine | IC50 | 5400 ± 300 nM |
| O=C(O)CC(=O)C(=O)O | citrate synthase H187Q mutant | binding, fluorescence titration | 20 °C | Kd | ~600000 nM |
| C=C(C)[C@H]1CN[C@H](C(=O)O)[C@H]1CC(=O)O | KAR | binding, ligand binding | – | Kd | 16 nM |
| CCS(=O)(=O)n1c2c(c3cc(C(=O)N4CCC(C)CC4)ccc31)CN(Cc1ccccc1)C2 | CB2 receptor | binding | – | Ki | 37 nM |
| C[N+](C)(C)[C@@H](Cc1c[nH]c(=S)[nH]1)C(=O)[O-] | EgtU substrate-binding domain Y390F | binding, isothermal titration calorimetry | – | Ka | 1.36e+06 ± 700000 M⁻¹ |
| NCC1C=Nc2nc(N)[nH]c(=O)c21 (centres unmarked) | class I riboswitch, Can | – | second of two cooperative sites | Kd | 461 nM |
| O=C(NN1CCCCC1)c1nc(-c2ccc(Cl)cc2Cl)n(-c2ccc(Cl)cc2)n1 | CB2 receptor | binding | – | Ki | 3560 nM |
| CCC(C)(c1ccc(O)cc1)c1ccc(O)cc1 | estrogen receptor alpha | binding | – | Kd | 246 nM |
| CN(C)c1ccc2c(=O)c(C(=O)NC3CCCCC3)cn(CCN3CCOCC3)c2n1 | CB1 receptor | binding | – | Ki | 5600 nM |
| Cc1cccc(C)c1OCC(=O)N[C@@H](Cc1ccccc1)[C@H](O)C(=O)N1CSC(C)(C)[C@H]1C(=O)N[C@H]1c2ccccc2C[C@H]1O | Gag-Pol polyprotein, protease (gag-pol, Human immunodeficiency virus type 1 group M subtype B, UniProt P04585) | competition ITC | – | Kd | 0.14 nM |

For quick reference, copied from above:
| SMILES | target | assay | setting | quantity | result |
| --- | --- | --- | --- | --- | --- |
| NCC1C=Nc2nc(N)[nH]c(=O)c21 (centres unmarked) | class I riboswitch, Can | – | second of two cooperative sites | Kd | 461 nM |
